Measured values pooled from the literature.
Each numbered part is a random draw from the data of one study; scales do not carry over between parts. Changes are numbered by the printed parent chain.

Set 1
Target: RING finger protein unkempt homolog, zinc fingers 1-6, GST-SBP tag (UNK, Homo sapiens, UniProt Q9C0B0, residues 30-357)
Technique: RNA Bind-n-Seq
Form: RNA
Medium: in vitro
Tested at: not given
Setting: RNA with constant flanks, human and mouse sites, ends assumed
Reference: input RNA pool
Direction: higher = stronger binding
All sequences stand within: GGGAGUUCUACAGUCCGACGAUC … CAACAGAGGAUUGAGCAUCA
Residues (chain): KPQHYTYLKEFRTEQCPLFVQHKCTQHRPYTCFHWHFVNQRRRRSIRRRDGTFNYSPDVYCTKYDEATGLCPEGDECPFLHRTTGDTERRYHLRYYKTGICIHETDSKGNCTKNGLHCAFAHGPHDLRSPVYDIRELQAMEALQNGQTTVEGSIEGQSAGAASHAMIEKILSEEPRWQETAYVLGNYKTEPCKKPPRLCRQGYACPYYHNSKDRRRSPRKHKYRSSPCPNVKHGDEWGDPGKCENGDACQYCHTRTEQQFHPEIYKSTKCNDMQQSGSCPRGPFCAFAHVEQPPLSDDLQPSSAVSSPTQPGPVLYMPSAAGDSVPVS
`AGACAUUUAUUCUUUCUUGGACCUCAGAUUUACCAGACAUCUCAUGGGUUUGUGGAUGCACUUAGAUGUUUGCAAUGAGCACUGUGGCUGGCAUGCCCCAGUGUUUUGGAUACCAAUGCA` gave a bound/input enrichment of 0.326 ratio.
The bound/input enrichment of `GAUAUGAGCAUAGAACAGAAGUUACCAAGAAAGCCUAAAACAGACAAAUUUCAGGUACUUGCUAAGUCACAUGCACAUAAAUCAGAAGCCCUGCACAGUAAAGUUAGGGAGAAAAAGAAU` is reported as 0.167 ratio.
With `AUUGAGAAGGCCCAGAACACAUUCAGAUAUGUCUUGAUUGACACACCUGGACAGAUUGAAGUAUUUACCUGGUCAGCUUCAGGGACAAUCAUCACUGAGGCCCUGGCUUCCUCAUUUCCA` the bound/input enrichment was 0.083 ratio.
`ACUCACGUGCCCAUGUUACAAGUCUGGACUGCCGACAAACCACAUCCACAGGAAGAGUAUUUAGAUUGCCUGUGGGCCCAGAUUCAGAAAUUGAAAAAAGACCGGUGGCAGGAGAGGCAC` gave a bound/input enrichment of 0.467 ratio.
`GAAUGGUACCUUCUAGCGACUGGCCUAUUUUUAUUGAGAAAAAAACUUGUUCUAUUUUUGUUGUUGUUACUGUUCUUAUGGAUUGCAUUCAUAUUUAAACCCUUUGGAUUGCUAACCAGA` gave a bound/input enrichment of 0.286 ratio.
The bound/input enrichment of `CAAGUUCCCUAUAAAUAUGAUUUAUAUGAAAAAACUUUGAAGUACAAUUCAGACUUACUUAGCAGUAGAAACUGUGUAAGAAAGAAAGGAGACGGGUGUGGUGGAUUUGGGGAACCACUU` is reported as 0.348 ratio.
With `CUCCAAGUUCGAAGCAUUCAGCAAACAAUGGCAAGGCAGAGCCACCAGAAACGUACACCUGAUUUUCAUGACAAAUACGGUAAUGCUGUAUUAGCUAGUGGAGCCACUUUCUGUAUUGUU` the bound/input enrichment was 0.181 ratio.
With `AUUCAGCCAGGAGGGUAGAGGUGGCUUUUAAUUUACCAUGUGGGCAUUACUGGACACAUUUUUUUAAAUAUGAAACUUAACCAUGCAUACUUUGUUGAGUAUUGAAGUUGUUCCACUGCU` the bound/input enrichment was 0.451 ratio.
`CAAGUGGGAACAGAAUUCAAAAGUAACUUUCCAGAAAAGAAUUUUAAAGUUGGCAUUUCAGAGCAGAAAUUUAAAUUUGGGCAUGUGGAUCAAGAAAAAACACCUUCCUUUGCCUUUCAG` gave a bound/input enrichment of 0.637 ratio.
For `UUUCAGUGAAGUGGAGUUACUCCAAGUGAAACGCUGUUUUCUGGUUUUAGCCAAACUGCAAUUAGAUGUGUCUUUGCAAUCUAAAAGUUGUACACAAUCAACAAUACACUUUGCUUACUC`, the bound/input enrichment was 0.107 ratio.
The bound/input enrichment of `CUGGGCCUCAGUUCUGGAGCCAGCUCUGCCCGAAGUUCUGCCCCUACUUCUGUACUGGGUUCACUCCAAAAUCCCAUCCUUCAGACCCACUCAGGAUCUAUCUCUAGUCCCGAUCUUGUU` is reported as 0.304 ratio.

Set 2
Target: ABI1, truncated, D143A, DHFR fusion (Arabidopsis thaliana)
Technique: DHFR PCA, deep sequencing
Medium: yeast
Setting: methotrexate growth selection, single substitutions
With: (+)-ABA 0 µM
Reference: wild-type fitted maximum
Direction: higher = stronger binding
Starting sequence: PYL1, truncated, DHFR fusion (Arabidopsis thaliana); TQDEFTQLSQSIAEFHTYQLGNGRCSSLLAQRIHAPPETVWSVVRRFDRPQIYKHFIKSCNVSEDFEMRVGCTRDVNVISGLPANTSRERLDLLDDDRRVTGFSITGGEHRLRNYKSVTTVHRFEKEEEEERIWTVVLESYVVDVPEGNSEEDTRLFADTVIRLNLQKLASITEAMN
For `Y18W`, “relative binding score” read 17.8%.
Under “relative binding score”, `R123D` is recorded as 5.3%.
Under “relative binding score”, `L20V` is recorded as 52.9%.
`P36H` — result for “relative binding score”: 20.8%.
Under “relative binding score”, `D153H` is recorded as 2.06%.
For `E109T`, “relative binding score” read -0.48%.
Under “relative binding score”, `W134M` is recorded as 27%.
`L20T` — result for “relative binding score”: 49.5%.
For `H16E`, “relative binding score” read 2.73%.

Set 3
Target: CCND2, cyclin fold, Cln2 fusion (human)
Technique: yeast growth competition, sequencing
Medium: yeast
Setting: weak parent motif
Reference: not given
Direction: higher = stronger binding
Starting sequence: CDC25A docking peptide (human); PPHRRRLLFACSP
`F9P`: “normalised enrichment score” 0.00608.
Under “normalised enrichment score”, `C11M` is recorded as -0.308.
Under “normalised enrichment score”, `H3F` is recorded as 0.498.
`S12P` — result for “normalised enrichment score”: 0.322.
`L8E` — result for “normalised enrichment score”: -0.131.
`P1D`: “normalised enrichment score” -0.207.
`R4I`: “normalised enrichment score” 0.223.
`P2K` — result for “normalised enrichment score”: 0.196.
For `R6V`, “normalised enrichment score” read 0.129.
`H3C`: “normalised enrichment score” 0.343.
Under “normalised enrichment score”, `L7Q` is recorded as -0.0673.
`F9L` — result for “normalised enrichment score”: 0.0997.
`R4G` — result for “normalised enrichment score”: 0.162.
`L7G` — result for “normalised enrichment score”: 0.0693.
For `R4E`, “normalised enrichment score” read 0.25.
`P1Y`: “normalised enrichment score” 0.456.
`R5A`: “normalised enrichment score” 0.438.
Under “normalised enrichment score”, `L7V` is recorded as 0.262.
`A10Q` — result for “normalised enrichment score”: 0.408.

Set 4
Target: RNA binding protein fox-1 homolog 2, RRM domain, GST-SBP tag (RBFOX2, Homo sapiens, UniProt O43251-10, residues 100-194)
Technique: RNA Bind-n-Seq
Form: RNA
Medium: in vitro
Tested at: 365 nM
Setting: natural RNA segment, single round, ends assumed
Reference: no-protein control
Direction: higher = stronger binding
All sequences stand within: GGGAGUUCUACAGUCCGACGAUC … UGGAAUUCUCGGGUGCCAA
Construct (chain): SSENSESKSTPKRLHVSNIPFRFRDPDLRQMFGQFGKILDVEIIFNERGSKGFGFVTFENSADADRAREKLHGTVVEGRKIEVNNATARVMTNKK
Under “RBNS enrichment (R)”, `GGGGUCGUGGGGACGGGAACAUGUGCCCGACCGCUCCAUCCCCUCCUCCUCCUUAGGAUGCAUAACCUACCUUGUCUUUUUUUUUUUUAAUUUUCUUUCCAGGUAGAGUA` is recorded as 0.659.
For `GUGGACACCCCUCGCUCUGAUGCCAACUGCAGAUAAUACACACCUCCUGCAGCGUCCAGCCACGGCUCCAGGGCACUGCUCUCCUCCUUGCACCGGUGAAACUCAGGCCA`, “RBNS enrichment (R)” read 0.5.
`UAUCUAAUGCUUCAAGUUUGGUCUUGGGAAGCUGACAUUUGUGUAGAAGAUGGACUCUGAAAGACAUUCCAAGAGUGCCGCGGCAGCAUGGGAGCCUCUUAGUGAUUGUG` — result for “RBNS enrichment (R)”: 9.66.
Under “RBNS enrichment (R)”, `UUGCAACUGAAAUAUGAUGGAUAUGCUUAAGUACAACUGAUGGCAUGAAAAAAAUCAAAUUUUUGAUUUAUUAUAAAUGAAUGUUGUCCCUGAACUUAGCUAAAUGGUGC` is recorded as 0.391.
`GCGACACCAGCUGCACUGGUCUUUUUCUCUCUAGACUCUUCACCGCCUGAGGACACUCCUGUCGUUGCUGCAGAAGCUGCUGCCCCUGUUCCAUCUGCUGUACUAACCAG`: “RBNS enrichment (R)” 0.28.
`AGCCUGCCUCAAUCAGUAUUCAUAUUUAUAGCCAGGUACCUUCUCACCUGUGAGACCAAAUUGAGCUAGGGGGGUCAGCCAGCCCUCUUCUGACACUAAAACACCUCAGC` — result for “RBNS enrichment (R)”: 0.313.
Under “RBNS enrichment (R)”, `UGUUUUGUCUUCCCCUUUCUGCACUUAAAUACCUGACAGCCUGUUCGAUCGCUGUGCCUCCGAGGGCGCUUCUAGCUCAUCGUAGAUUUGUGAUGUCAUAGUGCAAACUG` is recorded as 0.49.
Under “RBNS enrichment (R)”, `CUGUGCUCUGUGUCUGCAUGAAGGCUCAGCCUUUAGAGGCACUCCUUCUAGUUGCAUUAGUACUGUCUUUCUGUGGAGUUUGGUUUGAAGACUGGCUCAGCAAGUGGAGG` is recorded as 2.61.
For `AGCAAAGAACAGCAUCACCUUGAUAAAUGUCUUGACUCAGUCUGCGGCUUGUGAUCUGAAAAGUUCUCUAGGGUACCCUGGUUUUUGAAAUAUGCCUUCCUGCUGAGCUG`, “RBNS enrichment (R)” read 0.448.
`CAAUUUACUGUUUCACUGCACAGCAAUCACAGCCAGUGAAUGUUACACACAUCUUGCUAGACUAGUAUAAAAAUCAUUGGGUAAUUGUUGGUUCUAAUGACCUGAAAGGU`: “RBNS enrichment (R)” 0.349.
Under “RBNS enrichment (R)”, `CCAAUGGUGUGAGGUCUGGAAUGUAAGCCCCCAUCCACACAUGGACCACGCAAAGUGCUGGACACAUCAGUCAUCUCCAACUGGCUGAAAGGCUGAACCUCAGGGCUCCA` is recorded as 0.311.
`CCUGCCUGGGUGUCACUUUCUAGACAGUAAGGCGCUCCACUGCUUGCUGUCUGAGAUAUCCUUCAUAGUAUUCCAUGGCUCCCAUACUGCAGUCUAGUUAAGCAAAGAAC` — result for “RBNS enrichment (R)”: 0.284.

Repeated from above (set 1):
The bound/input enrichment of `CUGGGCCUCAGUUCUGGAGCCAGCUCUGCCCGAAGUUCUGCCCCUACUUCUGUACUGGGUUCACUCCAAAAUCCCAUCCUUCAGACCCACUCAGGAUCUAUCUCUAGUCCCGAUCUUGUU` is reported as 0.304 ratio.
The bound/input enrichment of `GAUAUGAGCAUAGAACAGAAGUUACCAAGAAAGCCUAAAACAGACAAAUUUCAGGUACUUGCUAAGUCACAUGCACAUAAAUCAGAAGCCCUGCACAGUAAAGUUAGGGAGAAAAAGAAU` is reported as 0.167 ratio.
`CAAGUGGGAACAGAAUUCAAAAGUAACUUUCCAGAAAAGAAUUUUAAAGUUGGCAUUUCAGAGCAGAAAUUUAAAUUUGGGCAUGUGGAUCAAGAAAAAACACCUUCCUUUGCCUUUCAG` gave a bound/input enrichment of 0.637 ratio.
With `AUUGAGAAGGCCCAGAACACAUUCAGAUAUGUCUUGAUUGACACACCUGGACAGAUUGAAGUAUUUACCUGGUCAGCUUCAGGGACAAUCAUCACUGAGGCCCUGGCUUCCUCAUUUCCA` the bound/input enrichment was 0.083 ratio.
`GAAUGGUACCUUCUAGCGACUGGCCUAUUUUUAUUGAGAAAAAAACUUGUUCUAUUUUUGUUGUUGUUACUGUUCUUAUGGAUUGCAUUCAUAUUUAAACCCUUUGGAUUGCUAACCAGA` gave a bound/input enrichment of 0.286 ratio.
The bound/input enrichment of `CAAGUUCCCUAUAAAUAUGAUUUAUAUGAAAAAACUUUGAAGUACAAUUCAGACUUACUUAGCAGUAGAAACUGUGUAAGAAAGAAAGGAGACGGGUGUGGUGGAUUUGGGGAACCACUU` is reported as 0.348 ratio.
With `AUUCAGCCAGGAGGGUAGAGGUGGCUUUUAAUUUACCAUGUGGGCAUUACUGGACACAUUUUUUUAAAUAUGAAACUUAACCAUGCAUACUUUGUUGAGUAUUGAAGUUGUUCCACUGCU` the bound/input enrichment was 0.451 ratio.
